Experimental data pooled from the literature.
Parts stem from different laboratories: compare values within a part only. Changes are numbered by the printed parent chain.

Series 1
Target: Max dimerization protein 1, bHLH-zipper, MAX partner unstated (MXD1, Homo sapiens, UniProt Q05195, residues 56-136)
Technique: protein-binding microarray
Molecule type: double-stranded DNA, one strand shown
Medium: in vitro
Tested at: not given
Notes: k-mer, scored over probes, only values ≥0.25
Direction: higher = stronger binding
Target sequence (chain): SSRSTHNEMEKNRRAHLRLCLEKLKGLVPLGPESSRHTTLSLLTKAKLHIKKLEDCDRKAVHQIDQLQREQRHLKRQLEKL
Strand | E-score
CACGGGGC | 0.321
AGGTGTGC | 0.266
CACGACCA | 0.288
GCGGGGCA | 0.306
CATGTGCA | 0.471
TCACATGA | 0.401
ATGTGCAG | 0.267
CGGGACAC | 0.327

Series 2
Target: Histone acetyltransferase KAT6A, both winged helices, GST fusion (KAT6A, Homo sapiens, UniProt Q92794, residues 1-181)
Technique: protein binding microarray
Molecule type: double-stranded DNA, one strand shown
Medium: in vitro
Tested at: not given
Notes: 8-mer, flanks averaged, mean of 2 arrays, mostly near background
Relative to: not given
Direction: higher = stronger binding
Construct (chain): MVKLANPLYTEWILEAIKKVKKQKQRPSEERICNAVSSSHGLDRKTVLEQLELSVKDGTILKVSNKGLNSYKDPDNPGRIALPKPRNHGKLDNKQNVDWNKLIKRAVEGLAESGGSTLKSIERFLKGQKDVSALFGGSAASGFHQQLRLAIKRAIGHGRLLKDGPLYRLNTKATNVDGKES
Strand | E-score
AGGCTATG | -0.0596
ACCTCCAC | -0.106
GGCAAGGA | -0.0795
AGTGTAAA | -0.106
AGCCTCAA | -0.163
AGGTTGCA | -0.0451
AAAATCTA | -0.0156
ACATTCAC | -0.105

Single results of other studies
P1: viral docking peptide; KGVKRKLFAEDSS; partner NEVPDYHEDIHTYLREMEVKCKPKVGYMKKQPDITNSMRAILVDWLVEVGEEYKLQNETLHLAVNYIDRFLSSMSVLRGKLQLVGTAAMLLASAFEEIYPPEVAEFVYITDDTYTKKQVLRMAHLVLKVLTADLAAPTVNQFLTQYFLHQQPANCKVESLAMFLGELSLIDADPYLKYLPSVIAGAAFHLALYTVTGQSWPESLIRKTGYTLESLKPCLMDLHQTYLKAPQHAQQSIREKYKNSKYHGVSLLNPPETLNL
Substance | target or system | test | test system | conditions | scale | measurement | value
SAE1 (Homo sapiens, UniProt Q9UBE0) | UBA2 (Homo sapiens, UniProt Q9UBT2) | cross-linking MS |  | hits only |  | interaction screen | cross-linked
P1 E10K | CCNA2, cyclin fold, Cln2 fusion (human) | yeast growth competition, sequencing | yeast | strong parent motif | relative to: not given, higher = stronger binding | normalised enrichment score | 4.66
PFKM (Homo sapiens, UniProt P08237) | FLOT2 (Homo sapiens, UniProt Q14254) | cross-linking MS | cell fractions | added: DSSO |  | cross-linked residues | K692 to S224
PhoQ, residues 284 288 289 292 302 303 TGYLSA | PhoP, residues 12 14 15 18 19 TPLRH (Escherichia coli, UniProt P23836) | Sort-seq, measured: YFP reporter | E. coli | PhoQ-PhoP variant library, added: 10 µM Mg2+ | relative to: high Mg2+ state, higher = stronger signaling | fold induction | 8.73
LMNB1 (Homo sapiens, UniProt P20700) | TMPO (Homo sapiens, UniProt P42167) | cross-linking MS |  | hits only |  | interaction screen | cross-linked

Repeated from above (series 1):
Strand | E-score
GCGGGGCA | 0.306
CATGTGCA | 0.471
